Measured values from different studies.
± gives the spread as reported.
CASP3: Caspase-3 (CASP3, Homo sapiens, UniProt P42574)

Protein sequences, listed by entry. Tags and fused reporters are not part of them. Residues count along the entry.
UniProt P42574, whole entry, looked up: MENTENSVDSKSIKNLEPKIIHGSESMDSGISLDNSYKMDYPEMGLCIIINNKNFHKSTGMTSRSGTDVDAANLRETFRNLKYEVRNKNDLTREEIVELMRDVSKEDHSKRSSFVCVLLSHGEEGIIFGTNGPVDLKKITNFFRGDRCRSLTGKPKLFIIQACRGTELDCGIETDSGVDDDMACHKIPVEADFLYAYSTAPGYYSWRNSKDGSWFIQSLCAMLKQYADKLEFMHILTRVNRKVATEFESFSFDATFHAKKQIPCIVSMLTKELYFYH
UniProt O55242, whole entry: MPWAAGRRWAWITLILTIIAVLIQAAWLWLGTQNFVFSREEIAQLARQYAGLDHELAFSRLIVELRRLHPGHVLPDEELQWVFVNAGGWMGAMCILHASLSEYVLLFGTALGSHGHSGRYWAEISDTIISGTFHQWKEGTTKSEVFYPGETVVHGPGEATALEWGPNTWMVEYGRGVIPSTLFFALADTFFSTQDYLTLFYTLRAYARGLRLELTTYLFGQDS
UniProt Q9Y5Y6, 615-854 limits assumed: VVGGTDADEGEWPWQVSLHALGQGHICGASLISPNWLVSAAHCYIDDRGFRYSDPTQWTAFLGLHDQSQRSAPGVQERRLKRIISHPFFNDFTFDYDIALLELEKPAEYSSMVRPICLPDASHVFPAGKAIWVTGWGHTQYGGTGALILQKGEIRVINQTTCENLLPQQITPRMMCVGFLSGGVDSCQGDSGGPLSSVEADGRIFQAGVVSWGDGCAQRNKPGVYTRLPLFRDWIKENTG
UniProt P37136, 32-614 limits assumed: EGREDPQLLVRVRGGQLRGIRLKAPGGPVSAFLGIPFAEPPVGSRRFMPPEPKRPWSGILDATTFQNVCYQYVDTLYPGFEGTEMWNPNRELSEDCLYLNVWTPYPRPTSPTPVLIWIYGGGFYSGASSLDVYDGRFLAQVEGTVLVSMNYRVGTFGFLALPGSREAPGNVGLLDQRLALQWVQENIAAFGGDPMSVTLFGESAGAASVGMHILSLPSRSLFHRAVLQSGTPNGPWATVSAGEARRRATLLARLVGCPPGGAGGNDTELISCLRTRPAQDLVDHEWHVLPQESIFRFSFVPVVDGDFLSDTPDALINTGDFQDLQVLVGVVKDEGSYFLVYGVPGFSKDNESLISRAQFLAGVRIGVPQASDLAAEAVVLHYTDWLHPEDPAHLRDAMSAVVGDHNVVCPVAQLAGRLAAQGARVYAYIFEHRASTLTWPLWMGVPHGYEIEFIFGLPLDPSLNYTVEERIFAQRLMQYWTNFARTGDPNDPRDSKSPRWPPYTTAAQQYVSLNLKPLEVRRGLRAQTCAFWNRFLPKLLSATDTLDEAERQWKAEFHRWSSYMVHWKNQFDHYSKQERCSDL
UniProt P09958, whole entry, looked up: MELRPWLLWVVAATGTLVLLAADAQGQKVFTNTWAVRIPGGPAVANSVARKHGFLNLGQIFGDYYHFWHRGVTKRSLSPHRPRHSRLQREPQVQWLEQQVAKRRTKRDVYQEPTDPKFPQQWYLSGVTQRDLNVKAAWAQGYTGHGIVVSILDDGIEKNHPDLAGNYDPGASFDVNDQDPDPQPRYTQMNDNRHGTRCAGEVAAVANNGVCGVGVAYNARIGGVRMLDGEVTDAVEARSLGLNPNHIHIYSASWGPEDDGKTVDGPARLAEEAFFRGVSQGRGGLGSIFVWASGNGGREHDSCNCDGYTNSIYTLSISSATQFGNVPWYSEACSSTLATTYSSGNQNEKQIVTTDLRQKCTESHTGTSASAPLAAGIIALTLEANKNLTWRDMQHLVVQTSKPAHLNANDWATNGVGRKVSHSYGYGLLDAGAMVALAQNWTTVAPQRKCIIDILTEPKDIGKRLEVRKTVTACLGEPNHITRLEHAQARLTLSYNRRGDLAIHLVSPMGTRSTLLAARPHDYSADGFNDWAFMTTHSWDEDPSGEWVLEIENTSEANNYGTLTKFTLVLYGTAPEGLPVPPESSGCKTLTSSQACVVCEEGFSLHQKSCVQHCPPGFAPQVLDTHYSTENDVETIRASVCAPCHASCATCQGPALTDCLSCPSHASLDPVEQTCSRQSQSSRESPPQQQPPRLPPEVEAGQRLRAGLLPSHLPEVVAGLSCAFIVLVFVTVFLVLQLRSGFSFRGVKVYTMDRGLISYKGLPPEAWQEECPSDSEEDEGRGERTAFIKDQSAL
UniProt P18031, 1-321 limits assumed: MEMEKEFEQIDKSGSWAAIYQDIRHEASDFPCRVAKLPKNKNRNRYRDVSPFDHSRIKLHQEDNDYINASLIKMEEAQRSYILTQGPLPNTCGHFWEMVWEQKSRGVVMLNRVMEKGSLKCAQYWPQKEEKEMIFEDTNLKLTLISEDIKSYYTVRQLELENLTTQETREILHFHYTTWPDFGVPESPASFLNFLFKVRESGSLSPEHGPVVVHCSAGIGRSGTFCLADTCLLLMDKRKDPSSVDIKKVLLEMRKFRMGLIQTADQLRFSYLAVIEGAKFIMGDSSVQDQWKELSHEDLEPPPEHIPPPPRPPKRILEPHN
UniProt P30926, 22-498 limits assumed: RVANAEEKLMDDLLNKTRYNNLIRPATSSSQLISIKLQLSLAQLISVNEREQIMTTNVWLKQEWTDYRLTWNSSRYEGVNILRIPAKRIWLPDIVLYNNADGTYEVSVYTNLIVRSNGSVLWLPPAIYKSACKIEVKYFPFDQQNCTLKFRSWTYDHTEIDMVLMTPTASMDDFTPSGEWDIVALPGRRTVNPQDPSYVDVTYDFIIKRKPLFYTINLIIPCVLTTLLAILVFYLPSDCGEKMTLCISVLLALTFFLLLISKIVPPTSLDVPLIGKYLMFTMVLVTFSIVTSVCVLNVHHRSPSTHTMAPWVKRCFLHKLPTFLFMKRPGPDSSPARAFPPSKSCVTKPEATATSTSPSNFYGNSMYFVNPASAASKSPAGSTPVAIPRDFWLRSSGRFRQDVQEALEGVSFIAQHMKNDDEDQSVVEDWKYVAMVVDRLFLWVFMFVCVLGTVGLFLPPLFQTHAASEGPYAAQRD
UniProt Q15822, 27-529 limits assumed: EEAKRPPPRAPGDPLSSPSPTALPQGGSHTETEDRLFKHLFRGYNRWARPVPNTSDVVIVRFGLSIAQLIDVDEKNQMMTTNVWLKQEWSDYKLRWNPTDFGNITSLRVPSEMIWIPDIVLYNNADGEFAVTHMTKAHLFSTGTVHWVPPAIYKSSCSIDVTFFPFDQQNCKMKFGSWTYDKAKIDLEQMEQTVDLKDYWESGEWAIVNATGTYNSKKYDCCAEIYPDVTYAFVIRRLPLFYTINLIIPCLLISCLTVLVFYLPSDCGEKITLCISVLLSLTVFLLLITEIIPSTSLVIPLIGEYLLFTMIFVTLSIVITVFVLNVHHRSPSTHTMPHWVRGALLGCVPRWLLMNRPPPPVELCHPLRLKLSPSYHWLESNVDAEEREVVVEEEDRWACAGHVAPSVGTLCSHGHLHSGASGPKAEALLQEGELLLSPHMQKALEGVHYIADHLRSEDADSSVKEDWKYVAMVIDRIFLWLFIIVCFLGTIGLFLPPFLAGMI

| SMILES | target or system | test | test system | conditions | scale | measurement | result |
| --- | --- | --- | --- | --- | --- | --- | --- |
| COC(=O)[C@H]1[C@@H](OC(=O)c2ccccc2)C[C@@H]2CC[C@H]1N2C | Sigmar1 (Mus musculus, UniProt O55242) | receptor occupancy | CD-1 mouse, whole brain | intraperitoneal, together with: iodinated radioligand |  | ED50 | 68 µmol/kg |
| CCOC(=O)c1c(-c2ccc(Cl)cc2Cl)n(-c2nc(-c3ccc(Cl)cc3)c3c(NC(=O)c4ccccc4)nnc-3[nH]2)[nH]c1=O | MDA-MB-435 | SRB |  |  |  | CC50 | 9.91 µM |
| N=C(N)c1ccc(C(NC(=O)COCC(=O)NCCCOCCOCCOCCCNC(=O)CCCC[C@@H]2SC[C@@H]3NC(=O)N[C@@H]32)P(=O)(Oc2ccccc2)Oc2ccccc2)cc1 (stereo partly drawn) | ST14 (Homo sapiens, UniProt Q9Y5Y6) | irreversible inhibitor |  |  |  | kinact/KI | 50 ± 2 M⁻¹ s⁻¹ |
| CC(C)[C@H](NC(=O)CNC(=O)[C@H](COP(=O)(O)O)NC(=O)[C@@H](NC(=O)[C@H](CCC(=O)O)NC(=O)[C@H](CC(=O)O)NC(=O)CCNC(=O)Cc1cc(=O)oc2cc(N)ccc12)C(C)C)C(=O)N[C@@H](CCCCNc1ccc([N+](=O)[O-])cc1[N+](=O)[O-])C(=O)N[C@@H](CC(=O)O)C(N)=O | CASP3 | substrate |  | pH 7.2 |  | Km | 8.76 µM |
| COP(=O)(OC)Oc1ccc([N+](=O)[O-])cc1Cl | Ache (Rattus norvegicus, UniProt P37136) | enzyme activity, inhibitor, discontinuous Ellman | rat, postnatal day 70, rat skeletal muscle homogenate | 15 min, 37 °C |  | IC50 | 0.092 µM |
| CC(C)[C@H](NC(=O)CNC(=O)[C@H](CCC(=O)O)NC(=O)[C@@H](NC(=O)[C@H](CCC(=O)O)NC(=O)[C@H](CC(=O)O)NC(=O)CCNC(=O)Cc1cc(=O)oc2cc(N)ccc12)C(C)C)C(=O)N[C@@H](CCCCNc1ccc([N+](=O)[O-])cc1[N+](=O)[O-])C(=O)N[C@@H](CC(=O)O)C(N)=O | CASP3 | substrate |  | pH 7.2 |  | Km | 12.8 µM |
| CC(C)C[C@H](NC(=O)[C@H](CO)NC(=O)[C@H](CCCNC(=N)N)NC(=O)[C@H](CCCCN)NC(=O)[C@H](CCCCN)NC(=O)[C@H](CCCNC(=N)N)NC(=O)[C@H](CCCNC(=N)N)NC(=O)[C@H](CCCNC(=N)N)NC(=O)c1ccccc1N)C(=O)N[C@@H](Cc1ccccc1)C(=O)NCC(=O)N[C@@H](CCC(N)=O)C(=O)NCCNc1ccc([N+](=O)[O-])cc1[N+](=O)[O-] | Furin (FURIN, Homo sapiens, UniProt P09958) | substrate |  | pH 7.0, 37 °C, no KCl |  | Km | 1.65 µM |
| CSCC[C@H](NC(=O)[C@H](CCC(N)=O)NC(=O)[C@H](CC(C)C)NC(=O)[C@H](Cc1ccc(O)cc1)NC(=O)[C@@H](N)CC(C)C)C(=O)N[C@@H](CC(N)=O)C(=O)N[C@@H](CO)C(=O)N[C@@H](CC(C)C)C(=O)O | HLA class I histocompatibility antigen, A alpha chain, allele A*26:01 (Homo sapiens, UniProt P04439) |  |  |  | direction not given | z-score | 0.151 |
| CC(=O)N[C@@H](CC(=O)O)C(=O)N[C@H](C(=O)N[C@@H](C)C(=O)N[C@@H](CC(=O)O)C(=O)N[C@@H](C)C(=O)N[C@@H](Cc1ccc(OP(=O)(O)O)cc1)C(=O)N[C@@H](C)C(=O)N[C@@H](C)C(N)=O)[C@@H](C)O | PTPN1 (Homo sapiens, UniProt P18031) | substrate, continuous UV |  | pH 7.4 |  | kcat/Km | 1.1e+06 M⁻¹ s⁻¹ |
| N#Cc1c(-c2ccc(Cl)cc2Cl)n(-c2nc(-c3ccc(Cl)cc3)c3c(NC(=O)c4ccccc4)nnc-3[nH]2)[nH]c1=O | TK-10 | SRB |  |  |  | CC50 | > 100 µM |
| CC(C)C[C@H](NC(=O)[C@H](Cc1ccccc1)NC(=O)CNC(=O)CNC(=O)[C@@H](N)Cc1ccc(O)cc1)C(=O)O | aminopeptidase III peak, rat | substrate |  | MW 110 kDa, together with: NAP-2 |  | kcat | 1.08 s⁻¹ |
| CC[C@H](C)[C@@H]1NC(=O)[C@H](CCC(=O)O)NC(=O)[C@@H]2CCCN2C(=O)[C@H](Cc2c[nH]cn2)NC(=O)[C@H](CCCNC(=N)N)NC(=O)[C@H](C(C)C)NC(=O)[C@H](CC(N)=O)NC(=O)[C@@H]2CSSC[C@H](NC(=O)CN)C(=O)N[C@@H](CSSC[C@@H](C(N)=O)NC1=O)C(=O)N[C@@H](CO)C(=O)N[C@@H](Cc1c[nH]cn1)C(=O)N1CCC[C@H]1C(=O)N[C@@H](C(C)C)C(=O)N2 | Neuronal acetylcholine receptor; alpha2/beta4 (Homo sapiens, UniProt P30926+Q15822) | ion current, antagonist, two-electrode voltage clamp | Xenopus oocytes | human, together with: ACh 300 µM |  | IC50 | > 10 µM |

Some of these lines once more:
| SMILES | target or system | test | test system | conditions | scale | measurement | result |
| --- | --- | --- | --- | --- | --- | --- | --- |
| CC(C)C[C@H](NC(=O)[C@H](Cc1ccccc1)NC(=O)CNC(=O)CNC(=O)[C@@H](N)Cc1ccc(O)cc1)C(=O)O | aminopeptidase III peak, rat | substrate |  | MW 110 kDa, together with: NAP-2 |  | kcat | 1.08 s⁻¹ |
| CC[C@H](C)[C@@H]1NC(=O)[C@H](CCC(=O)O)NC(=O)[C@@H]2CCCN2C(=O)[C@H](Cc2c[nH]cn2)NC(=O)[C@H](CCCNC(=N)N)NC(=O)[C@H](C(C)C)NC(=O)[C@H](CC(N)=O)NC(=O)[C@@H]2CSSC[C@H](NC(=O)CN)C(=O)N[C@@H](CSSC[C@@H](C(N)=O)NC1=O)C(=O)N[C@@H](CO)C(=O)N[C@@H](Cc1c[nH]cn1)C(=O)N1CCC[C@H]1C(=O)N[C@@H](C(C)C)C(=O)N2 | Neuronal acetylcholine receptor; alpha2/beta4 (Homo sapiens, UniProt P30926+Q15822) | ion current, antagonist, two-electrode voltage clamp | Xenopus oocytes | human, together with: ACh 300 µM |  | IC50 | > 10 µM |
